Measurements collected from several papers.
Parts stem from different laboratories: compare values within a part only.

Block 1
Target: POU, POU domain (Salpingoeca helianthica)
Technique: Spec-seq
Molecule type: double-stranded DNA, one strand shown
Matrix: in vitro
Concentration: not given
Notes: whole probe, mean of replicates
Baseline: not given
Direction: lower = stronger binding
Endpoint: relative binding energy
All sequences stand within: GAGTCGTCTCGTCAGCAC … CCGTAGAGCACTCAGGTC
Construct (chain): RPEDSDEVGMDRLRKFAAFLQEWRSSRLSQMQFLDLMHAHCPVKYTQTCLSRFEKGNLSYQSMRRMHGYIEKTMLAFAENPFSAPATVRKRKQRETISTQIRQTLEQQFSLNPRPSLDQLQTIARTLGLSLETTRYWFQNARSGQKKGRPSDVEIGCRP
Oligonucleotide = TACTTAAT; value = 0.187 ln ratio
Oligonucleotide = ATTAACAT; value = 0.0457 ln ratio
Oligonucleotide = AGTATAAT; value = 0.445 ln ratio
Oligonucleotide = ATATACAT; value = 0.759 ln ratio
Oligonucleotide = ATGCGCCG; value = 1.1 ln ratio
Oligonucleotide = ATGTAAAT; value = 0.87 ln ratio
Oligonucleotide = ATGAACAT; value = 1.05 ln ratio
Oligonucleotide = ACCATAAT; value = 0.699 ln ratio

Block 2
Target: Max-binding protein MNT, bHLH-zipper, MAX partner unstated (MNT, Homo sapiens, UniProt Q99583, residues 220-300)
Technique: protein-binding microarray
Molecule type: double-stranded DNA, one strand shown
Matrix: in vitro
Concentration: not given
Notes: k-mer, scored over probes, only values ≥0.25
Direction: higher = stronger binding
Endpoint: E-score
Construct (chain): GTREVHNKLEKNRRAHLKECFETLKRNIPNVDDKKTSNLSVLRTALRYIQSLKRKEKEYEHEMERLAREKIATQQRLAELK
Oligonucleotide = ATGCCGCA; value = 0.268
Oligonucleotide = CGGCGTGA; value = 0.32
Oligonucleotide = ACGCGCAT; value = 0.34
Oligonucleotide = AGCGTGGA; value = 0.392
Oligonucleotide = CGTCACGC; value = 0.358
Oligonucleotide = AGGAGGGG; value = 0.275
Oligonucleotide = ACACACAT; value = 0.32
Oligonucleotide = ACATGGGG; value = 0.423

Further values, each from its own experiment
Compound = CC(C)n1cnc(-c2ccc(F)cc2)c1-c1ncc(C(=O)Nc2ccc(N3CCN(C)CC3)cc2)[nH]1; system = idiopathic pulmonary fibrosis patients; conditions = 60 mg once daily, acute exacerbation hospitalization; endpoint = mean hospitalized days; value = 23.3 days
Compound = CCCCOC(=O)c1ccc(N)cc1; tested on = Plasmodium berghei; test = inhibitor; system = Huh-7, GFP-expressing sporozoites, liver stage; conditions = 10 µM, 24 h; how to read = baseline: untreated control; endpoint = infection rate; value = 90.1%

Excerpt of the above (block 1):
Oligonucleotide = ATGCGCCG; value = 1.1 ln ratio
Oligonucleotide = ATGTAAAT; value = 0.87 ln ratio
Oligonucleotide = ATGAACAT; value = 1.05 ln ratio
